Experimental data gathered from unrelated publications.
Parts stem from different laboratories: compare values within a part only. Positions count from the first letter of the parent shown.

Study 1 — method: EMSA with sequencing; form: double-stranded DNA, one strand shown; sample: in vitro; concentration: 10 and 20 nM; reference: negative control set to 0; reading: higher = stronger binding
Target: Hepatocyte nuclear factor 3-alpha (Foxa1, Mus musculus, UniProt P35582, residues 1-468, full length assumed)
Setting: whole designed probe, mean of two concentrations, ends assumed
Target sequence (chain): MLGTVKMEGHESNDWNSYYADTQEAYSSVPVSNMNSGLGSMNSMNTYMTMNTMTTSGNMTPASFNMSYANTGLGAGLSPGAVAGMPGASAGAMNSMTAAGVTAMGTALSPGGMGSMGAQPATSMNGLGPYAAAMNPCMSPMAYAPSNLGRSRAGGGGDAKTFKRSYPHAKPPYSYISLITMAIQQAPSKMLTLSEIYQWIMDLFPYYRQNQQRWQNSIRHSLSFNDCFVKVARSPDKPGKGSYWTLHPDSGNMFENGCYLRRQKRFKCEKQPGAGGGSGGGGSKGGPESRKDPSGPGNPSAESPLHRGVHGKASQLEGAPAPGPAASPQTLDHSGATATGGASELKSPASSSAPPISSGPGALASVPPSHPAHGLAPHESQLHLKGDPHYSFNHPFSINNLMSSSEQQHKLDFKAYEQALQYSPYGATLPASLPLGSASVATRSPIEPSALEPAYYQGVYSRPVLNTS
| Strand | normalised bound fraction [ratio] |
| --- | --- |
| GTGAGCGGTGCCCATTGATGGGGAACTTTTAACTAGTATGTTTTAAACTTTGGTATTGTATTTCCCACTAAGAGCCCTTCTTTTTTCAAAATAATATTTATTCTACCAGATGAACTATGTAAACATAAAGCAATATGGACAAGCATTTATTCTTTTGTTTTTAATTAACTTGCCCACATGATTTCAAATTTCATTAGAATTTATATTATAGTATTTCAATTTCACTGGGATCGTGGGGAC | 0.466 |
| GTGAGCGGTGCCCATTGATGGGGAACTATCTTCTCCCCATTTATTAATTCACATATTTACATCAGCTTGGAGTTATTGATTTCTATTTTATTAAATAGTTTATAATTGATTACCATCCTTATTTATTTTAATGCTCAAATTGTCCCAAATTATGGCCAAAGAAAGCTCCTTCAAACTGGTTGCTATGTCCTTTTGACATGGCCCATCATTCTTTAAACATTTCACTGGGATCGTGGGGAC | 0.256 |
| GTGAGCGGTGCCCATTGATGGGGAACATCTAGTTCCAGTCTTAGCATGGCAATTTCTTCCCGCAACATGCTGTTTTCACGCAAGAGATCTTCTTCTTTCTTATGACTAAGAGAAAGCTAAGTAAACAAAGGGAACTTTTAGTTAGCACTCAATAGAATGACATATCATGATTTCTTCTAAAATCAAAGAATGACATTTATATTTGTATAATGAAATAATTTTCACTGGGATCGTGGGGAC | 0.522 |
| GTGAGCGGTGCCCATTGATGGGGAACGAACAGATGGATGCAGACACAGCGTTTGGTTCTGAAGGTTTTTAAGAGTTATGGCTTCATCTCTTGATCAGGCCAACAAGGCCTACTACCCTATGTAAACAACGGCTTTCCCTCAAAGGGAGGGCCCCACACTGCTCTCCACTCTTATCATTTTGTGGCTCTCTCCTCCTCACCCACCCACCCCAATCCTGGCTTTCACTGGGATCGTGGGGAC | 0.454 |
| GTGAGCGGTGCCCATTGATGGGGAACCTGTAGCCTTTGCAAATAACCTTTTTGAACAAAAACGGCAATGGCTCATTCCAAACCCGATCAAAGAGGTATGCATGACTCACAGCCACTAAATAATCTTTGATGCCTGATGGCAGTAATATGGCTATTTATATTCAGAGCCTGATTTAACCAGTGGCATTCCTGTAATAAGATAATAAGCATGAGCTGTTTATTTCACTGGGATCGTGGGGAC | 0.103 |
| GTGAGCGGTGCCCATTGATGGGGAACATCTTCCCCCTCTTCCTTGCCCCACCAGCTCACCTTCCCGGGTTATTTGCAGATAGGAAAATAAATAAAGCCGGCATTCGTTAACCCTCTTCTGGCGCAAACTGCTGTTTGCTCTGGATGTGATCAGTCACTTTGGCGACGCCAGGCTCCGGGAGAGCAAAGCACCGTGTCAGGGCCATGATCCGGGGTGGCCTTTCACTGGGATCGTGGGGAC | 0.354 |
| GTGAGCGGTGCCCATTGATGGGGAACGTAATTCATATAACAATTAAGTACGCACTTTTGAAAAATGACATCTAATTAATAGAAACTCTTCCAAAGCAACAAGTGGGTAGCAAAACTAAGTAATCTAGAGTGCTTAAAAATGGAACTCCTGGAATGCTTTTAAACCATGTTACTTGCTTATCATTCACTGATTATTCCTGGTTTCTCTTTTCTTTCTCTATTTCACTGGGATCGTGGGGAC | -0.0447 |
| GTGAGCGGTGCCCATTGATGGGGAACCCTCTCCATTCTGATTTCCTTCAGACAAAATTATTTCTATCTTCGACATCAACAACTCTCCTGAAAAACATATAGTCAGTTCATCCAATTTCATATTTACTCTTTACTCTTGAGCACAATTTCTTGCCTACCAATTTATGAGCTCTTTCCAGTGAAAGTCCATATCTTCCATTCTTCTGTTACCCCTTTGGGGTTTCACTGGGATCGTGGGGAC | 0.177 |

Study 2 — method: protein binding microarray; form: double-stranded DNA, one strand shown; sample: in vitro; concentration: not given; reference: not given; reading: higher = stronger binding
Target: Histone acetyltransferase KAT6A, winged helix 2, GST fusion (KAT6A, Homo sapiens, UniProt Q92794, residues 85-181)
Setting: 8-mer, flanks averaged, mean of 2 arrays, mostly near background
Target sequence (chain): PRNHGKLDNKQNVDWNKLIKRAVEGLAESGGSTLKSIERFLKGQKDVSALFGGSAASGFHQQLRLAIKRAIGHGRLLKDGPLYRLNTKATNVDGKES
| Strand | E-score |
| --- | --- |
| CAAAGGAC | -0.169 |
| CACATTCA | -0.217 |
| AAGGTCCG | 0.111 |
| AAGCCTCT | -0.101 |
| GCTTAGCA | 0.131 |
| CGGCATAG | 0.00711 |
| TCGTCTAA | -0.111 |
| ATGGCGCC | -0.00303 |
| CTGCTTCA | 0.062 |
| AAACTGCA | 0.0985 |
| AACGGTAT | -0.064 |
| AAGTAAGC | -0.0358 |
| CTATGCAA | -0.113 |
| CACGAGTA | -0.119 |
| AGGAAGGG | -0.0695 |
| CGCCGTGA | 0.0567 |
| AGAGTTTG | 0.024 |

Study 3 — target: CCNF, cyclin fold, Cln2 fusion (human); method: yeast growth competition, sequencing; sample: yeast; setting: strong parent motif; reference: not given; reading: higher = stronger binding
Starting sequence: TICRR docking peptide (human); TKVRRNLFNQELL
| Substitution | normalised enrichment score |
| --- | --- |
| TKVRRNLFAQELL [N9A] | 6.82 |
| TKVARNLFNQELL [R4A] | 5.37 |
| TKVRRNLFNQEAL [L12A] | 5.9 |
| TKVRRNAFNQELL [L7A] | 0.589 |
| TAVRRNLFNQELL [K2A] | 8.6 |
| TKVRKNLFNQELL [R5K] | 2.88 |
| TKARRNLFNQELL [V3A] | 4.64 |

Study 4 — method: DHFR PCA, deep sequencing; sample: yeast; added: (+)-ABA 710 µM; reference: wild-type fitted maximum; reading: higher = stronger binding
Target: ABI1, truncated, D143A, DHFR fusion (Arabidopsis thaliana)
Setting: methotrexate growth selection, single substitutions
Starting sequence: PYL1, truncated, DHFR fusion (Arabidopsis thaliana); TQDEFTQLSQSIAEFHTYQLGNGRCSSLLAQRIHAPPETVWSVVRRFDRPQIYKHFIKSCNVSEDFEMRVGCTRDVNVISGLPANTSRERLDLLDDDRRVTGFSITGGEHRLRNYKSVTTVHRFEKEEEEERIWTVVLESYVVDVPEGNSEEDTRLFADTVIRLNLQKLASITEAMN; partner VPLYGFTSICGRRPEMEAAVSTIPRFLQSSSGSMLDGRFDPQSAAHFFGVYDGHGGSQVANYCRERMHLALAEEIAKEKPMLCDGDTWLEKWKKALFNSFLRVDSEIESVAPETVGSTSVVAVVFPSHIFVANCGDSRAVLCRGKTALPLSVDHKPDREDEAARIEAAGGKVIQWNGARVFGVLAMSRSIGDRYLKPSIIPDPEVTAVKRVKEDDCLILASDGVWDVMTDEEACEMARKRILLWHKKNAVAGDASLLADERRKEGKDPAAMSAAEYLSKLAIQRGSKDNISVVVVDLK
| Substitution | relative binding score [%] |
| --- | --- |
| T135N | 0.563 |
| Q2T | 89.2 |
| R69T | 102 |
| E38R | 86.3 |
| V43L | 101 |
| S63Y | 94.7 |
| E151W | 89.4 |
| T106V | 110 |
| E129I | 92.8 |
| H16R | 36.4 |
| E125N | 111 |
| G81L | 22.4 |
| L8C | 110 |
| E152F | 91.5 |
| S11I | 96.8 |
| P83F | 25.3 |
| D3F | 101 |
| I57Q | 68.5 |
| G81C | 77.9 |
| F157N | -22.1 |
| E4S | 92.2 |

Study 5 — method: RNA Bind-n-Seq; form: RNA; sample: in vitro; concentration: 1 µM; setting: whole 134-nt RNA, ends assumed; added: 150 mM KCl; reference: input library; reading: higher = stronger binding
Target: Ras GTPase-activating protein-binding protein 1, RRM domain (G3BP1, Homo sapiens, UniProt Q13283)
UniProt Q13283, sequence (whole entry, looked up): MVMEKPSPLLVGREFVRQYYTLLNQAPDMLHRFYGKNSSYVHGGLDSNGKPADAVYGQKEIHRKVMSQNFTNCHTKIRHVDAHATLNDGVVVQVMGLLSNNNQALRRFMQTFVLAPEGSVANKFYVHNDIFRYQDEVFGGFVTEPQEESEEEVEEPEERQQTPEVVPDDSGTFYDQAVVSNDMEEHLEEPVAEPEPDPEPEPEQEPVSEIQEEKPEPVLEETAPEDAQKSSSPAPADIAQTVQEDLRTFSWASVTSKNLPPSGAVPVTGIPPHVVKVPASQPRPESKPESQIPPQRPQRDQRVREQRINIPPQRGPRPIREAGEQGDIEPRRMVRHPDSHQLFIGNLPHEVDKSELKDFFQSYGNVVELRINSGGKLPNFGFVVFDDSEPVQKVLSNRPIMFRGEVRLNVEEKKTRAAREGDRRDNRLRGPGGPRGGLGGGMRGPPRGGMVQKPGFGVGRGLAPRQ
| Strand | log2 enrichment |
| --- | --- |
| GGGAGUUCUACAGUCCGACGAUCUGGGAGGUGGAUUUUGUUUAUUUUUUUAGCUCAUUUCCAGGGGUGGGAAUUUUUUUUUAAUAUGUGUCAUGAAUAAGGUUGUUUUUGAAAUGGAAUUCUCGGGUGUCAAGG | 0.832 |
| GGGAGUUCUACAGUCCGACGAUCCACAGACAACACGCACCCACACAGACACAGAGGGAAGGGGUUGGGAUGGGAAAAGGGUGCACAGCAGGGCGGGGUAGGACCCCAGCCCCUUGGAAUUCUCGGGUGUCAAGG | -0.277 |
| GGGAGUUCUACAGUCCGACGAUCCAAGUCCUGUGCUACACAUCGUAUGUACCGAAUCAAAUUUAAAUUUAAACCCAAAAAAGUAUUAUGUUACGCCGUUCGGAUCUGCACUUCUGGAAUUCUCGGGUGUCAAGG | -0.306 |
| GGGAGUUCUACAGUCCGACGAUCUCCUCAAGUCCUGUGCUACACAUCGUAUGUACCGAAUCGGUGGGUGGUGGGAAAGUAUUAUGUUACGCCGUUCGGAUCUGCACUUCCAGCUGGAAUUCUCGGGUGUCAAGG | -0.0503 |
| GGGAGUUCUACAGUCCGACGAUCUCCUGUGCUACACAUCGUAUGUACCGAAUCGGUUUUUUGGGUUUUUUGGGUUUUUUGGGGAAAGUAUUAUGUUACGCCGUUCGGAUCUGCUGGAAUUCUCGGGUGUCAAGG | -0.156 |
| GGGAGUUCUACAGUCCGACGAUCUUAGGGAUGUGGCCAUAGAAUUCUCUCAGGAGGAGUGGAAAUGCCUGGACCCUGCUCAGAGGAUCUUAUACAGGGACGUGAUGUUGGAGAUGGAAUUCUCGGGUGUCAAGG | 0.133 |
| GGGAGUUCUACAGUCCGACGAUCGCAGGAAGUAAAAACAAAUGGAAAUGCUUCGGAUAGUGGCAGGGGUGGGGGUUGCUAAGGAAAGGGAAAGAUGGGAGUGGGUAAAGAGUUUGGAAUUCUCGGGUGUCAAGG | 1.08 |
| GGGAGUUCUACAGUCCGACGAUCUGAACCUUCCAAUAGCAACCAAGAAAUAAACUCUGAUGACAGACGACCCCAAUGGAGACGAGAAGACCGAAUUCCUUACCAAGACAGAGAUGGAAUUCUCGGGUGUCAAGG | -0.134 |
| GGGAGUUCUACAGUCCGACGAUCUCCUGUGCUACACAUCGUAUGUACCGAAUCGGAAAAAAGGGAAAAAAGGGAAAAAAGGGGAAAGUAUUAUGUUACGCCGUUCGGAUCUGCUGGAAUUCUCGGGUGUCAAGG | 0.00368 |
| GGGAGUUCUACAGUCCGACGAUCCAAGUCCUGUGCUACACAUCGUAUGUACCGAAUCGGGGUUUGGGGUGGGGAGGGGAAAGUAUUAUGUUACGCCGUUCGGAUCUGCACUUCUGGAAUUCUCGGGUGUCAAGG | 0.969 |
| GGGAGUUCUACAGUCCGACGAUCGUCCUGUGCUACACAUCGUAUGUACCGAAUCAAAUUUAAACCCCCCCAAACCCCCAAAAAAGUAUUAUGUUACGCCGUUCGGAUCUGCACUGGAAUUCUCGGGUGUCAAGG | -0.384 |
| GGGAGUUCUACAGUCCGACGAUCUCCUGUGCUACACAUCGUAUGUACCGAAUCGGGUUUUUUUGGGUUUGGGUUUUUUUGGGAAAGUAUUAUGUUACGCCGUUCGGAUCUGCAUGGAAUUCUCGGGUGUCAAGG | -0.192 |
| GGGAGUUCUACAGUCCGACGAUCCUGUGCUACACAUCGUAUGUACCGAAUCAAAUUUUUUUAAAUUUUUUUAAAUUUUUUUAAAAAAGUAUUAUGUUACGCCGUUCGGAUCUGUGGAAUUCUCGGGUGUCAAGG | -0.229 |
| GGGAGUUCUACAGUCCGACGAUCCACAGACAACACGCACCCACACAGACACAGAGGGAAGGGGUUGGGAUGGGGACAGGGUGCACAGCUGGGCGGGGUAGGACCCCAGCCCCUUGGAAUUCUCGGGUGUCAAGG | 0.0362 |
